Published values gathered from unrelated publications.
Parts stem from different laboratories: compare values within a part only. Values joined by “and” are separate records of one study, mostly repeats; a detail may differ.
Sequence of UniProt Q8N5S9 (whole entry, looked up): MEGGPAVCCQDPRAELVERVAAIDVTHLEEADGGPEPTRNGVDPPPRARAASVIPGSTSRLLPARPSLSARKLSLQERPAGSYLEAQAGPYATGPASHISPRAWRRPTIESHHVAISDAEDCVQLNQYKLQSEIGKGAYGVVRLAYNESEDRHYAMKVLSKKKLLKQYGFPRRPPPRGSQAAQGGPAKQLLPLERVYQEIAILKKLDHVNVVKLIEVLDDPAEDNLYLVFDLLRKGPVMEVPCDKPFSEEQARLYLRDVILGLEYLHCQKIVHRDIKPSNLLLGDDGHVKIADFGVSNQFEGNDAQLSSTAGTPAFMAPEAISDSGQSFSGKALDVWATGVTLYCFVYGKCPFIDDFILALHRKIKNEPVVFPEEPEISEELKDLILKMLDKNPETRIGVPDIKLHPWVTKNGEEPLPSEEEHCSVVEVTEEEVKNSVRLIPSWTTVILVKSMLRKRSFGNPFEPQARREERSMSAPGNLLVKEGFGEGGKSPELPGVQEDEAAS
Sequence of UniProt O15111 (whole entry, looked up): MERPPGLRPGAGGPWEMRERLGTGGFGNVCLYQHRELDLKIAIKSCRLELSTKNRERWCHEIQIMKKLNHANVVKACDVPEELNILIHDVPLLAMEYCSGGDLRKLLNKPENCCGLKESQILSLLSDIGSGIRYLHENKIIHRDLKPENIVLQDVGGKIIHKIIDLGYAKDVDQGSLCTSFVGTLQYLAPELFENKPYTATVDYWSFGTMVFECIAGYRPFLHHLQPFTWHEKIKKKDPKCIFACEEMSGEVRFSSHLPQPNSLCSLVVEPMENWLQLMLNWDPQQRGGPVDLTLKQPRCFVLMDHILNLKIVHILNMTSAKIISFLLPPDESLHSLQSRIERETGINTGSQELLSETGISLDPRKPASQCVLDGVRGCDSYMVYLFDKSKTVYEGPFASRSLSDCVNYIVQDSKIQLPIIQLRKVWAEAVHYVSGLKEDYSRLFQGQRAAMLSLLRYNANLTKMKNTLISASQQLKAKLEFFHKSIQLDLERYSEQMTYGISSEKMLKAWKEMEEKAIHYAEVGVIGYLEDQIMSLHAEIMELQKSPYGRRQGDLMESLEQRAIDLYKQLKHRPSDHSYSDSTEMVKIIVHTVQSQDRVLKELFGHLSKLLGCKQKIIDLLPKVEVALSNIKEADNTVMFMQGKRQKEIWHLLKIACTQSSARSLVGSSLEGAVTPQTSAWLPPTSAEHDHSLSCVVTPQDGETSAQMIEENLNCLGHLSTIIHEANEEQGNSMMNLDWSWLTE
Sequence of UniProt Q06418 (whole entry, looked up): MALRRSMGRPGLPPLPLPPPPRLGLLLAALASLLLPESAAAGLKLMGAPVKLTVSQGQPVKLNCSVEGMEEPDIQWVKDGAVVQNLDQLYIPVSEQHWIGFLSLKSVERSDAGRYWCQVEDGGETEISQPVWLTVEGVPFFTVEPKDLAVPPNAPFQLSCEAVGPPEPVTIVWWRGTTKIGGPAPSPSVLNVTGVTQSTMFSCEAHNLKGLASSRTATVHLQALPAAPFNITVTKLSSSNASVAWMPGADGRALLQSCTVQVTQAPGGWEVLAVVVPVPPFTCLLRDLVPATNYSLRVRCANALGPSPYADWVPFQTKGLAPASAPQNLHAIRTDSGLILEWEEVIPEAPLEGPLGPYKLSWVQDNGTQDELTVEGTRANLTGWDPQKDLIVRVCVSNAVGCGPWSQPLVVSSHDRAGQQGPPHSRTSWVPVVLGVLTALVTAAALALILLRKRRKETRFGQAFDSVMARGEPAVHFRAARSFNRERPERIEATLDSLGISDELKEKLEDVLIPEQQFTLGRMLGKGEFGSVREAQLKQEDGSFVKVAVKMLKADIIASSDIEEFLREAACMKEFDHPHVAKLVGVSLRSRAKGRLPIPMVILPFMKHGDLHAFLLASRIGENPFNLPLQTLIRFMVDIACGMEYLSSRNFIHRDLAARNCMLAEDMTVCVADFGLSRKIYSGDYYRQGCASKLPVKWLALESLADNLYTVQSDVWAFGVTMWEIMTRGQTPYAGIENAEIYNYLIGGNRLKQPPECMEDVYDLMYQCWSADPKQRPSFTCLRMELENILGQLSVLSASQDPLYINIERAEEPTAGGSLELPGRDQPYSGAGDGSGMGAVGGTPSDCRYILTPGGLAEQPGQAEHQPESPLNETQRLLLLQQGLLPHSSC
Sequence of UniProt Q9UBS0 (whole entry, looked up): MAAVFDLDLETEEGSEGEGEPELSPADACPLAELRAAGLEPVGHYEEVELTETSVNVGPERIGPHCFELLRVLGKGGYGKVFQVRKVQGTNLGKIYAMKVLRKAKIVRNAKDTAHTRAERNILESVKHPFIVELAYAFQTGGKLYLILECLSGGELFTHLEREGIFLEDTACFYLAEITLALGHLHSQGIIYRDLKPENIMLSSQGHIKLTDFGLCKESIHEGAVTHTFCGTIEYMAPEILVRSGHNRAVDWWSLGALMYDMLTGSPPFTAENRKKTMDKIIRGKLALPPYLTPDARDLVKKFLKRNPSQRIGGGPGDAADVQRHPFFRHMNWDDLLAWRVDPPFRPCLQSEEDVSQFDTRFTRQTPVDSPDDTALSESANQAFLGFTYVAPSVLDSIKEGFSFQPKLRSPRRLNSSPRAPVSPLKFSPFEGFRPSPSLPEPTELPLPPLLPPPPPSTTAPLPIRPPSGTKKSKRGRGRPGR
Sequence of UniProt O60674 (whole entry, looked up): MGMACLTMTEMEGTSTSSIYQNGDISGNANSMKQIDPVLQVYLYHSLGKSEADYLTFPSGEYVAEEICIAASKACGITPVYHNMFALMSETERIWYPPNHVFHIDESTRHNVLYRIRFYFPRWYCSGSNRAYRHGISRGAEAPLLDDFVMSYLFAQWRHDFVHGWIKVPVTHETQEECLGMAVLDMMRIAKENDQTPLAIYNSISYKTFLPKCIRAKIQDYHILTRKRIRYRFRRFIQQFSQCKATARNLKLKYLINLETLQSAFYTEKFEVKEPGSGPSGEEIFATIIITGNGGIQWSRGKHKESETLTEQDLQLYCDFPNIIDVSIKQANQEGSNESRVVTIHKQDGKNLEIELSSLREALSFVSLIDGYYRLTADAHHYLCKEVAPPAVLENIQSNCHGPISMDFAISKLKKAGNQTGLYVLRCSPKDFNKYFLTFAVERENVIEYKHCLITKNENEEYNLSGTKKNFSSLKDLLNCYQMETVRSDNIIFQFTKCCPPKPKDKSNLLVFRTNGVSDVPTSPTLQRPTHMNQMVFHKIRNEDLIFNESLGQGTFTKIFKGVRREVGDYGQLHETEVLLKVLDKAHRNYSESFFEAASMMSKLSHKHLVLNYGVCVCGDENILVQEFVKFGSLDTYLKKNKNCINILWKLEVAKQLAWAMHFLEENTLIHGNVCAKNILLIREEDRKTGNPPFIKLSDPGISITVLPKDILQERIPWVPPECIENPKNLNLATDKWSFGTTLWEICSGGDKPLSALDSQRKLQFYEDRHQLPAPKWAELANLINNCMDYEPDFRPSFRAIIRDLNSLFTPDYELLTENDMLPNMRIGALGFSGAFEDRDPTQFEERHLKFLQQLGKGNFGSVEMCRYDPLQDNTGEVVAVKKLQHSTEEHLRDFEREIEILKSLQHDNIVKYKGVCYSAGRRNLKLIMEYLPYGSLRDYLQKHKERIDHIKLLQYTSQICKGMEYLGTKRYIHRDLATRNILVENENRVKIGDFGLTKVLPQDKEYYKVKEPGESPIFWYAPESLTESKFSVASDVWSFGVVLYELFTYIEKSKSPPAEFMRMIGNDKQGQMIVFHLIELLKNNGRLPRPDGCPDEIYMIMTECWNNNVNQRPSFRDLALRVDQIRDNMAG
Sequence of UniProt O96013 (whole entry, looked up): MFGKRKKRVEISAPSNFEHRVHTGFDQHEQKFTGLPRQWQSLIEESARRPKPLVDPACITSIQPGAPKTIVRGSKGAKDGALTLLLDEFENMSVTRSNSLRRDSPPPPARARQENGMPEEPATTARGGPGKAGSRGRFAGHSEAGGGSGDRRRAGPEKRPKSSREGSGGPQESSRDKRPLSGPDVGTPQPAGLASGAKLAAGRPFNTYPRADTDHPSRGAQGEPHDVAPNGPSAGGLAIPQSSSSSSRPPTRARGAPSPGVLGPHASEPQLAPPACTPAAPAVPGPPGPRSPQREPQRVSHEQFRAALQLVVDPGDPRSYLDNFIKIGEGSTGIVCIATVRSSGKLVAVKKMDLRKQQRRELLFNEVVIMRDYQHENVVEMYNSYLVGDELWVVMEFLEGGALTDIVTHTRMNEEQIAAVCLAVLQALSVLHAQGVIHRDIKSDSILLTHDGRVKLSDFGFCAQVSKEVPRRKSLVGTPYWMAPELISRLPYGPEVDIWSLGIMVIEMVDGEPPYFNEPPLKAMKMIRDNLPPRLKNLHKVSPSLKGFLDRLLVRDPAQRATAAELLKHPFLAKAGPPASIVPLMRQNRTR
Sequence of UniProt P48730 (whole entry, looked up): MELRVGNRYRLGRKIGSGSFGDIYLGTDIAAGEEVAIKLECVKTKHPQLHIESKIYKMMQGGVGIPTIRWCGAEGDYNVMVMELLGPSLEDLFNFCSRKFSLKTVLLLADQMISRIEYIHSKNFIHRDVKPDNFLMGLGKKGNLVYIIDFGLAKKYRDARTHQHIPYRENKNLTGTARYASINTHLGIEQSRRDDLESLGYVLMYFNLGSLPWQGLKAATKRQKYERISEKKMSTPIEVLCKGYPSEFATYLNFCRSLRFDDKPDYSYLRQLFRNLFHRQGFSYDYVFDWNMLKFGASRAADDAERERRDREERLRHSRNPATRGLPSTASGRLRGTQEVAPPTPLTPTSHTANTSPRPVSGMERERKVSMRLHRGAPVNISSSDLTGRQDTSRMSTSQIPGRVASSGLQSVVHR
Sequence of UniProt Q00535 (whole entry, looked up): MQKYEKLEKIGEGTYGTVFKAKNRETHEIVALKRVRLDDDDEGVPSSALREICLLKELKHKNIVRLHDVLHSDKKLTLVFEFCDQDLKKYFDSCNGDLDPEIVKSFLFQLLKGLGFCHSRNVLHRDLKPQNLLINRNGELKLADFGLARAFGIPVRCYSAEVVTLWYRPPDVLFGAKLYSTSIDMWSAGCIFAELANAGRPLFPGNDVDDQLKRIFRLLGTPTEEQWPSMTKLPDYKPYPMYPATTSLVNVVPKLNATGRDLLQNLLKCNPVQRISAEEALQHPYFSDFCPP

Series 1
SMILES: CC(C)(C(=O)O)[C@H](NC(=O)Cc1cccc(I)c1)c1ccc2oc(=O)[nH]c2c1
Method: Incucyte 3D growth
Concentration: 30 µM
Direction: higher = more growth
| cell line | time | spheroid area |
| --- | --- | --- |
| PC-9 | 228 h | 1.77e+09 a.u. and 1.88e+09 a.u. and 1.81e+09 a.u. and 1.82e+09 a.u. and 1.83e+09 a.u. and 1.85e+09 a.u. |
| PC-9 | 156 h | 1.17e+09 a.u. and 1.28e+09 a.u. and 1.21e+09 a.u. and 1.25e+09 a.u. and 1.26e+09 a.u. |
| NCI-H358 | 132 h | 7.11e+06 a.u. and 5.63e+06 a.u. and 7.59e+06 a.u. and 4.48e+06 a.u. and 5.26e+06 a.u. and 5.3e+06 a.u. |
| A375 | 486.52 h | 1.79e+08 a.u. and 1.49e+08 a.u. and 1.47e+08 a.u. and 1.4e+08 a.u. and 1.62e+08 a.u. and 1.55e+08 a.u. |
| MEL-JUSO | 516.52 h | 2.57e+07 a.u. and 2.67e+07 a.u. and 1.71e+07 a.u. and 6.16e+07 a.u. and 2.8e+07 a.u. and 8.36e+07 a.u. |
| NCI-H358 | 282 h | 1.02e+07 a.u. and 1.25e+07 a.u. and 1.12e+07 a.u. and 9.31e+06 a.u. |

Series 2
Compound: CN(C)CCCn1cc(C2=C(c3c[nH]c4ccccc34)C(=O)NC2=O)c2ccccc21
Effect on: enzyme activity
Action: inhibitor
Concentration: 0.5 µM
Reference: control
| target | remaining activity |
| --- | --- |
| MELK (Homo sapiens, UniProt Q14680) | 42% |
| PAK6 (Homo sapiens, UniProt Q9NQU5) | 100% |
| PAK4 (Homo sapiens, UniProt O96013) | 93.6% |
| RPS6KB2 (Homo sapiens, UniProt Q9UBS0) | 59% |
| ERBB2 (Homo sapiens, UniProt P04626) | 96.5% |
| CAMKK1 (Homo sapiens, UniProt Q8N5S9) | 90.8% |
| SGK2 (Homo sapiens, UniProt Q9HBY8) | 74.4% |
| EPHA2 (Homo sapiens, UniProt P29317) | 81.8% |
| TYRO3 (Homo sapiens, UniProt Q06418) | 97.2% |
| FES (Homo sapiens, UniProt P07332) | 90.9% |
| JAK2 (Homo sapiens, UniProt O60674) | 93.9% |
| DYRK1A (Homo sapiens, UniProt Q13627) | 54.7% |
| EPHB3 (Homo sapiens, UniProt P54753) | 95.2% |
| YES1 (Homo sapiens, UniProt P07947) | 84.6% |
| Cyclin-dependent kinase 2, with cyclin E (CDK2, Homo sapiens, UniProt P24941) | 80.4% |
| MUSK (Homo sapiens, UniProt O15146) | 71.9% |
| MARK1 (Homo sapiens, UniProt Q9P0L2) | 84.1% |
| RPS6KA3 (Homo sapiens, UniProt P51812) | 2.47% |
| Cyclin-dependent kinase 5, with p35 (CDK5, Homo sapiens, UniProt Q00535) | 90% |
| BRSK2 (Homo sapiens, UniProt Q8IWQ3) | 55.6% |
| CSNK1D (Homo sapiens, UniProt P48730) | 97.6% |

Series 3
SMILES: CNC(=O)Nc1ccc2c(c1)CC[C@@]21OC(=O)N(CC(=O)N(Cc2ccc(F)cc2)[C@@H](C)C(F)(F)F)C1=O
Concentration: 1 µM
| target | effect on | method | remaining binding [%] |
| --- | --- | --- | --- |
| MYLK2 (Homo sapiens, UniProt Q9H1R3) | cell-free assay | competition with immobilised ligand | 84 |
| MAP3K15 (Homo sapiens, UniProt Q6ZN16) | cell-free assay | competition with immobilised ligand | 77 |
| CDK19 (Homo sapiens, UniProt Q9BWU1) | – | competition binding | 96 |
| WNK3 (Homo sapiens, UniProt Q9BYP7) | cell-free assay | competition with immobilised ligand | 83 |
| CHUK (Homo sapiens, UniProt O15111) | cell-free assay | competition with immobilised ligand | 92 |
| HCK (Homo sapiens, UniProt P08631) | cell-free assay | competition with immobilised ligand | 99 |

Series 4
Host: human
Medium: microsomes or S9
Concentration: 2 µM
Time: 0.5 h
| SMILES | remaining compound [%] |
| --- | --- |
| CC(C)CN(CC(C)C)S(=O)(=O)c1ccc(NC(=O)C(C)C)cc1 | < 1 |
| CC(C)COc1cc(=O)n2c(c1C(=O)NCCCN1CCOCC1)CCCCC2 | 85.5 |
| CN(CCN1CCCCC1)C(=O)c1c2c(nn1C)CCCC2 | 80.7 |
| Cc1nc(CCN2CC3(CCNCC3)CCC2=O)sc1Cl | 71.1 |
| CC(C)CS(=O)(=O)CC(=O)n1cccc/c1=N\C(C)C | 77.2 |
| Brc1cccc(-c2cnc3n2CCCCC3)c1 | 1.05 |
| Cc1nnc2n1CCC(N(C)S(=O)(=O)c1cn(C)cn1)CC2 (stereo not drawn) | 70 |
| COC[C@]1(C)Oc2ccc(N)cc2[C@H](N(Cc2ncc[nH]2)c2ccc(Cl)cc2)[C@H]1O | 17.9 |

Other studies, line by line
| Structure (SMILES) | medium | endpoint | result |
| --- | --- | --- | --- |
| CCOC(=O)[C@@H]1CSCC(=O)N[C@@H](CC)C(=O)N(C)[C@@H](C)C(=O)N[C@H](CC(C)C)C(=O)N2CCC[C@H]2C(=O)N(CC(C)C)CC(=O)N[C@H](CC(C)C)C(=O)N(C)[C@H](C)C(=O)N[C@@H](CC(C)C)C(=O)N1C | hydrocarbon/water | logD | 2.13 |

For quick reference, copied from above (series 2):
| target | remaining activity |
| --- | --- |
| MARK1 (Homo sapiens, UniProt Q9P0L2) | 84.1% |
| Cyclin-dependent kinase 5, with p35 (CDK5, Homo sapiens, UniProt Q00535) | 90% |
| JAK2 (Homo sapiens, UniProt O60674) | 93.9% |
| EPHB3 (Homo sapiens, UniProt P54753) | 95.2% |
| SGK2 (Homo sapiens, UniProt Q9HBY8) | 74.4% |
